Published values gathered from unrelated publications.
Protocols differ between the studies behind these lines. ± marks the error that the study gave. ≈ marks a conversion by molar mass, not a printed value.

Compound | tested on | assay | system | setting | scale | endpoint | result
CCCC[C@H](NC(=O)CNC(=O)CNC(=O)CN1CCN(CC(=O)O)CCN(CC(=O)O)CC1)C(=O)N[C@H]1CC(=O)NCCCC[C@@H](C(N)=O)NC(=O)[C@H](Cc2c[nH]c3ccccc23)NC(=O)[C@H](CCCNC(=N)N)NC(=O)[C@@H](Cc2ccccc2)NC(=O)[C@H](Cc2c[nH]cn2)NC1=O [technetium-99m labelled] |  |  | C57 mouse, lung | iv, 0.037 MBq, 4 h |  | tissue uptake | 0.18 ± 0.05 %ID/g
N=C(N)NCCC[C@@H]1NC(=O)[C@H](CCCCNC(=O)CCC(C(=O)O)N2CCCN3CCN(CCCN(C(CCC(=O)NCCCC[C@@H]4NC(=O)[C@@H](Cc5ccc(O)cc5)NC(=O)[C@H](CC(=O)O)NC(=O)CNC(=O)[C@H](CCCNC(=N)N)NC4=O)C(=O)O)CC3)CC2)NC(=O)[C@@H](Cc2ccc(O)cc2)NC(=O)[C@H](CC(=O)O)NC(=O)CNC1=O (stereo partly drawn) [copper-64 labelled] |  |  | SCID mouse, PC-3 xenograft, tumour | iv, dose not given, 1 h |  | tumour uptake | 2.92 ± 0.26 %ID/g
CCCC[C@H](NC(=O)CCCCCCCNC(=O)CN1CCN(CC(=O)O)CCN(CC(=O)O)CC1)C(=O)N[C@H]1CC(=O)NCCCC[C@@H](C(N)=O)NC(=O)[C@H](Cc2c[nH]c3ccccc23)NC(=O)[C@H](CCCNC(=N)N)NC(=O)[C@@H](Cc2ccccc2)NC(=O)[C@H](Cc2c[nH]cn2)NC1=O [copper-64 labelled] |  |  | C57 mice, skin | intravenous, 0.37 MBq, 2 h |  | tissue uptake | 0.39 ± 0.05 %ID/g
COc1cc(CCC(C)=O)ccc1O | mAb 5-D8 | antibody binding, indirect competitive ELISA |  | with: coating antigen hapten 4-OVA |  | IC50 | > 4 µg/mL
[64Cu+2].c1ccc(CNCc2ccc(CN3CCCN4CCNCCCN(CC4)CC3)cc2)nc1 | CXCR4 (human) |  | NOD/SCID mice, U87 xenografts, small intestine | 480 min post-injection |  | tissue uptake | 3.62 ± 0.63 %ID/g
C/C=C(/C)C(=O)O[C@H]1C(C)=C2[C@H]([C@@H]1OC(=O)CCCCCCC)[C@@](C)(OC(C)=O)C[C@H](OC(=O)CCCCCCCCCCCNC(=O)C[C@H](N)C(=O)N[C@@H](CCC(=O)N[C@@H](CCC(=O)N[C@@H](CCC(=O)N[C@@H](CCC(=O)O)C(=O)O)C(=O)O)C(=O)O)C(=O)O)[C@@]1(O)[C@H]2OC(=O)[C@@]1(C)O |  |  | human patients | intravenous infusion, 1 h infusion |  | clearance | 199 mL/h/m²
C=C1CC[C@H](OCCCNC(=O)CCOCCOCCOCCOCCOCCOCCOCCOCCOCCOCCOCCOCCOCCOCCOCCOCCOCCOCCOCCOCCOCCOCCOCCOCCOCCOCCOCCOCCOCCOCCOCCOCCOCCOCCOCCOCCNC(=O)CCN2C(=O)CC(SC[C@H](NC(=O)[C@H](Cc3ccccc3)NC(=O)[C@H](CC(N)=O)NC(=O)[C@H](Cc3c[nH]cn3)NC(=O)[C@@H](NC(=O)[C@H](CC(=O)O)NC(=O)[C@H](CCC(N)=O)NC(=O)[C@H](CC(C)C)NC(=O)[C@H](CCCCN)NC(=O)[C@H](CCCCN)NC(=O)[C@H](CCCNC(=N)N)NC(=O)[C@H](CC(C)C)NC(=O)[C@H](Cc3c[nH]c4ccccc34)NC(=O)[C@H](CCC(=O)O)NC(=O)[C@@H](NC(=O)[C@H](CCCNC(=N)N)NC(=O)[C@H](CCC(=O)O)NC(=O)[C@H](CCSC)NC(=O)[C@H](CO)NC(=O)[C@H](CC(N)=O)NC(=O)[C@H](CC(C)C)NC(=O)[C@H](Cc3c[nH]cn3)NC(=O)[C@H](CCCCN)NC(=O)CNC(=O)[C@H](CC(C)C)NC(=O)[C@H](CC(N)=O)NC(=O)[C@H](Cc3c[nH]cn3)NC(=O)[C@H](CCSC)NC(=O)[C@H](CC(C)C)NC(=O)[C@H](CCC(N)=O)NC(=O)[C@@H](NC(=O)[C@H](CCC(=O)O)NC(=O)[C@H](CO)NC(=O)[C@@H](NC(=O)[C@@H](N)CO)C(C)C)[C@@H](C)CC)C(C)C)C(C)C)C(N)=O)C2=O)C/C1=C/C=C1\CCC[C@]2(C)[C@@H]([C@H](C)CCCC(C)(C)O)CC[C@@H]12 (stereo partly drawn) |  |  | Sprague Dawley rat | subcutaneous, 70 µg/kg daily, 21 days | relative to: 1 µg/kg dose | dose-normalized Cmax | 4.74
N=C(N)NCCC[C@@H]1NC(=O)[C@H](CCCCNC(=O)CC[C@H](NC(=O)CCOCCOCCOCCOCCNC(=O)CN2CCN(CC(=O)O)CCN(CC(=O)O)CC2)C(=O)NCCCC[C@@H]2NC(=O)[C@@H](Cc3ccccc3)NC(=O)[C@H](CC(=O)O)NC(=O)CNC(=O)[C@H](CCCNC(=N)N)NC2=O)NC(=O)[C@@H](Cc2ccccc2)NC(=O)[C@H](CC(=O)O)NC(=O)CNC1=O [fluorine-18 labelled] |  |  | athymic nude mouse, female, MDA-MB-435 xenograft, tumour | intravenous, dose not given |  | tumour uptake | 2.73 ± 0.64 %ID/g
CC(C)C[C@H](NC(=O)[C@H](CC(C)C)NC(=O)[C@H](CCCNC(=N)N)NC(=O)CCCCCNC(=O)/C=C/c1ccc(O)c(O)c1)C(=O)N[C@@H](CCCNC(=N)N)C(N)=O |  | RP-HPLC, C18 column |  |  | higher is more hydrophobic | retention time | 5.1 min
N=C(N)NCCC[C@@H]1NC(=O)[C@H](CCCCNC(=O)CNC(=O)CNC(=O)CNC(=O)CC[C@H](NC(=O)CNC(=O)CNC(=O)CNC(=O)CC[C@H](NC(=O)CN2CCN(CC(=O)O)CCN(CC(=O)O)CCN(CC(=O)O)CC2)C(=O)NCC(=O)NCC(=O)NCC(=O)N[C@@H](CCC(=O)NCC(=O)NCC(=O)NCC(=O)NCCCC[C@@H]2NC(=O)[C@@H](Cc3ccccc3)NC(=O)[C@H](CC(=O)O)NC(=O)CNC(=O)[C@H](CCCNC(=N)N)NC2=O)C(=O)NCC(=O)NCC(=O)NCC(=O)NCCCC[C@@H]2NC(=O)[C@@H](Cc3ccccc3)NC(=O)[C@H](CC(=O)O)NC(=O)CNC(=O)[C@H](CCCNC(=N)N)NC2=O)C(=O)NCC(=O)NCC(=O)NCC(=O)NCCCC[C@@H]2NC(=O)[C@@H](Cc3ccccc3)NC(=O)[C@H](CC(=O)O)NC(=O)CNC(=O)[C@H](CCCNC(=N)N)NC2=O)NC(=O)[C@@H](Cc2ccccc2)NC(=O)[C@H](CC(=O)O)NC(=O)CNC1=O [indium-111 labelled] |  |  | female athymic nu/nu mice, lungs | intravenous, 4 h |  | tissue uptake | 2.72 ± 0.38 %ID/g
CCCCC/C=C/C(=O)CCc1ccc(O)c(OC)c1 | mouse mAb 1-D6 | antibody binding, indirect competitive ELISA |  |  |  | IC50 | 0.658 µg/mL (≈ 2.38 µM)
NS(=O)(=O)Nc1ncnc(OCCOc2ncc(Br)cn2)c1-c1ccc(Br)cc1 |  | Michaelis-Menten plot, measured: compound formation | female Sprague-Dawley rat, liver microsomes | 1500 mg/kg daily, 4 weeks |  | Vmax | 478 ± 27 pmol/min/mg
